Experimental data collected from several papers.
Each numbered part is a random draw from the data of one study; scales do not carry over between parts.
Sequence of UniProt Q09013 (whole entry, looked up): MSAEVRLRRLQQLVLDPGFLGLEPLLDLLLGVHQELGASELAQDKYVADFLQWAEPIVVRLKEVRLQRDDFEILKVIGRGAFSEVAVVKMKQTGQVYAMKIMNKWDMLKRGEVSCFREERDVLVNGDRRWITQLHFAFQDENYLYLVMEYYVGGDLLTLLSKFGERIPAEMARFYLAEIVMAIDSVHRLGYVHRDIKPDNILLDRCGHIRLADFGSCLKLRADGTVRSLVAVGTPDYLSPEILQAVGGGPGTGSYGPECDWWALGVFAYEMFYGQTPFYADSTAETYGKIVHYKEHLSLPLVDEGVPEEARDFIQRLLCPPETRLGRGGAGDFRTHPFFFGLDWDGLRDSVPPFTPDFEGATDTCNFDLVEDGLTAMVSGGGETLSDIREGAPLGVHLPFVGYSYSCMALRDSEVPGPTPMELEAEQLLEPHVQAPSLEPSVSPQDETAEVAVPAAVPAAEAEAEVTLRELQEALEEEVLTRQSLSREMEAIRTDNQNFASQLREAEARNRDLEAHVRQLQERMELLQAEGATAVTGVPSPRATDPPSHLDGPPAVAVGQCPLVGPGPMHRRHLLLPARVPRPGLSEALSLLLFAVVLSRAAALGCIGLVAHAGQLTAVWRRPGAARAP
Sequence of UniProt P00519 (whole entry, unmodified, looked up): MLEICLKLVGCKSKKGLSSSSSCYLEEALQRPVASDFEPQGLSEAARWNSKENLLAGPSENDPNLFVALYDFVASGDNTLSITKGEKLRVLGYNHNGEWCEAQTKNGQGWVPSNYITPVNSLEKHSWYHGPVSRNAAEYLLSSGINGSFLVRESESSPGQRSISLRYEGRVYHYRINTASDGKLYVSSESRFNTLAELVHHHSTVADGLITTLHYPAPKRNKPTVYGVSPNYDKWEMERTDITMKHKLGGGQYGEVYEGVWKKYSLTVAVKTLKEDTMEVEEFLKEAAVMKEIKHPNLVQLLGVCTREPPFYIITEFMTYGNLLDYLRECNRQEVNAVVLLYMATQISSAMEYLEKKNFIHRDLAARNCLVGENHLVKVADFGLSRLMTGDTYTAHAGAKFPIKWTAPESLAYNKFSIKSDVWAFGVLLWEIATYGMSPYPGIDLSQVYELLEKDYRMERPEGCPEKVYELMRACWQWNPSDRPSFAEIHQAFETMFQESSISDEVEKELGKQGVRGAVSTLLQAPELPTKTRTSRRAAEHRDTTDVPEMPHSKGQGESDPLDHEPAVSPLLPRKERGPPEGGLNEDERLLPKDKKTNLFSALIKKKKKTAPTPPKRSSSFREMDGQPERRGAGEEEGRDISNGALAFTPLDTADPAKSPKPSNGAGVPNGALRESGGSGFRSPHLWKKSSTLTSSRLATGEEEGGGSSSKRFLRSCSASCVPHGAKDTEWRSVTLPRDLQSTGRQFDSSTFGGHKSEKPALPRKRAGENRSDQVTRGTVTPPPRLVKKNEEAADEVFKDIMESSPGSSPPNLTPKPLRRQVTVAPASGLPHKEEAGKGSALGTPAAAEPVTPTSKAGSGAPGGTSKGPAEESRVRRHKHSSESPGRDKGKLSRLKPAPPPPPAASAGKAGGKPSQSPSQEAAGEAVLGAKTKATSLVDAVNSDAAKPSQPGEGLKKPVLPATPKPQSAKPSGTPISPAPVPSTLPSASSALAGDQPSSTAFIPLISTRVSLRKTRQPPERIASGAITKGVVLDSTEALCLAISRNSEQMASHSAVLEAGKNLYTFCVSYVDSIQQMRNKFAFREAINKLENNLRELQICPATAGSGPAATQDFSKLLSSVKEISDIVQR
Sequence of UniProt Q13233 (whole entry, looked up): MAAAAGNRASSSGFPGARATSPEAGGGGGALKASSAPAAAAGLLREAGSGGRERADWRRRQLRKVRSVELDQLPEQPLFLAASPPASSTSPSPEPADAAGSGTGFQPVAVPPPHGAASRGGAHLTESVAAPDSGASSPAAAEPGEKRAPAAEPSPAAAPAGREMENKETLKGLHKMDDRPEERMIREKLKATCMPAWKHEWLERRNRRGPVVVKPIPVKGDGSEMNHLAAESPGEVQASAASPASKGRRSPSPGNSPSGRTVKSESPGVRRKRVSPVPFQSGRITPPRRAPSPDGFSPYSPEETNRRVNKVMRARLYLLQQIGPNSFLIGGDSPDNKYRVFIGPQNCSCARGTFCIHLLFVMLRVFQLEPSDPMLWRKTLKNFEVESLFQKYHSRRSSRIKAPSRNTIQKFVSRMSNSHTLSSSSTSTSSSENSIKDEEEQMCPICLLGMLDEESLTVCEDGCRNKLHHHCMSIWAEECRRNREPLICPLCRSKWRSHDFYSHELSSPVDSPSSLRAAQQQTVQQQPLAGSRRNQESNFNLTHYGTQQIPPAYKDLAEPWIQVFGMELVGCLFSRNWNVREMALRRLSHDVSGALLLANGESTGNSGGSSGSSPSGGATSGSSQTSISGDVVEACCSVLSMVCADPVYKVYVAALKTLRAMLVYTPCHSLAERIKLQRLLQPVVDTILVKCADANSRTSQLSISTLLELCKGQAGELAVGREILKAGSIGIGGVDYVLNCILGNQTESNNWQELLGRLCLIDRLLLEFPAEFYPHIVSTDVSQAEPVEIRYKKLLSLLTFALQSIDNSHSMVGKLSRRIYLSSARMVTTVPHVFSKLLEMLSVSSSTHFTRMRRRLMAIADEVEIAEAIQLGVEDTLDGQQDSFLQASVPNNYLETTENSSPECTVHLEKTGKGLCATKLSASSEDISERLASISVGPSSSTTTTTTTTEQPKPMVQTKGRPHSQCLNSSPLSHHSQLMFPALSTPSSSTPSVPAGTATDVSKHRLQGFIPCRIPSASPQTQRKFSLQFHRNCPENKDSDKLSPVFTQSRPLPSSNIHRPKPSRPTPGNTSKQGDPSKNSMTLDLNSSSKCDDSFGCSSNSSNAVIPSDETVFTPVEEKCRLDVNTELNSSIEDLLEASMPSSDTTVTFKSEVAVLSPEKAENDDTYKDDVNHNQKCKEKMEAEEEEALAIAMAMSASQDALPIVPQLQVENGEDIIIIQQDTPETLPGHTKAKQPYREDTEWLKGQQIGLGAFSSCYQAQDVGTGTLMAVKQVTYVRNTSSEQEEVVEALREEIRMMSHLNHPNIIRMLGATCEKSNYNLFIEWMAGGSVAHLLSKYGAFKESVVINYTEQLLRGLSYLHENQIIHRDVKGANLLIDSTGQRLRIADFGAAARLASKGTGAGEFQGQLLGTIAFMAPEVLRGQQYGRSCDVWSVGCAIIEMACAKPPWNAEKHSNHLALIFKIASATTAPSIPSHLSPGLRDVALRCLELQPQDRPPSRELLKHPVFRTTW
Sequence of UniProt P29597 (whole entry, looked up): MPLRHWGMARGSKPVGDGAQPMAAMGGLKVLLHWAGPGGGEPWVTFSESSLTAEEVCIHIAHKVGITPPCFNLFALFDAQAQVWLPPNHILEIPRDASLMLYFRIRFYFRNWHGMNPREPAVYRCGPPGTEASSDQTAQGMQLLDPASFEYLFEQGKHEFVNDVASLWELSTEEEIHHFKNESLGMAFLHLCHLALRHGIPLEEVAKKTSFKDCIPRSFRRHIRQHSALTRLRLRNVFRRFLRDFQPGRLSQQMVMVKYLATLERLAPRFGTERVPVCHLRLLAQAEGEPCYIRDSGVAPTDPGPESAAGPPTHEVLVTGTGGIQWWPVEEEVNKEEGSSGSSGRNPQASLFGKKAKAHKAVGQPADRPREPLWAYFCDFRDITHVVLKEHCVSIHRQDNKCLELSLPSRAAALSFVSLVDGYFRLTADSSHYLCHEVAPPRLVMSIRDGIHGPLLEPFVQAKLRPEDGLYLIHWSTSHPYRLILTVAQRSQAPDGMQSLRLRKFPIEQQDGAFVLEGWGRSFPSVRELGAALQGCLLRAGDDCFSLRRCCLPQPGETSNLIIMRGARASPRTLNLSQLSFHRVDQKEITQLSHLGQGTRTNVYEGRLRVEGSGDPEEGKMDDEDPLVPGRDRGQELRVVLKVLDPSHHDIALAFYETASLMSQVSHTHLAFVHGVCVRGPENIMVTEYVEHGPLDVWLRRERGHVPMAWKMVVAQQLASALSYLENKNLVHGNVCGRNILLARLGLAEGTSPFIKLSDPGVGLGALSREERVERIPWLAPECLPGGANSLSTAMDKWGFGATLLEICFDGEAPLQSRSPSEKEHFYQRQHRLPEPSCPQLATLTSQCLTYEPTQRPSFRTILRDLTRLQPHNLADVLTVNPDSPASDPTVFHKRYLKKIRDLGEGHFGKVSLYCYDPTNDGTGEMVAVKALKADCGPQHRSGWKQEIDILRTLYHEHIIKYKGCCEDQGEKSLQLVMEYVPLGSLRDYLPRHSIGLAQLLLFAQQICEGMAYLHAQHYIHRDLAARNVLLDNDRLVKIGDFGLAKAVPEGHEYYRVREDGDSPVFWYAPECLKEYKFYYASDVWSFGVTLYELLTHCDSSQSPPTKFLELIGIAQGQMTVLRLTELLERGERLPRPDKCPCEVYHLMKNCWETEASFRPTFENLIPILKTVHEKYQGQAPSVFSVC

Study 1 — observed: cell-free assay; technique: competition with immobilised ligand; concentration: 1 µM
SMILES: CN([C@@H]1CCc2c(CC(=O)O)c3cc(S(C)(=O)=O)ccc3n2C1)S(=O)(=O)c1ccc(F)cc1
| target | remaining binding |
| --- | --- |
| Mitogen-activated protein kinase kinase kinase kinase 2 (MAP4K2, Homo sapiens, UniProt Q12851) | 90% |
| Serine/threonine-protein kinase SBK1 (SBK1, Homo sapiens, UniProt Q52WX2) | 100% |
| Mitogen-activated protein kinase kinase kinase 1 (MAP3K1, Homo sapiens, UniProt Q13233) | 66% |
| Non-receptor tyrosine-protein kinase TYK2, JH1 (TYK2, Homo sapiens, UniProt P29597) | 100% |
| BMP-2-inducible protein kinase (BMP2K, Homo sapiens, UniProt Q9NSY1) | 98% |
| Serine/threonine-protein kinase Nek3 (NEK3, Homo sapiens, UniProt P51956) | 59% |
| Serine/threonine-protein kinase PLK1 (PLK1, Homo sapiens, UniProt P53350) | 93% |
| Myotonin-protein kinase (DMPK, Homo sapiens, UniProt Q09013) | 100% |
| MAP kinase-interacting serine/threonine-protein kinase 2 (MKNK2, Homo sapiens, UniProt Q9HBH9) | 100% |
| Fibroblast growth factor receptor 1 (FGFR1, Homo sapiens, UniProt P11362) | 100% |
| SRSF protein kinase 1 (SRPK1, Homo sapiens, UniProt Q96SB4) | 100% |
| Serine/threonine-protein kinase 32C (STK32C, Homo sapiens, UniProt Q86UX6) | 100% |
| Serine/threonine-protein kinase haspin (HASPIN, Homo sapiens, UniProt Q8TF76) | 83% |
| Tyrosine-protein kinase ABL1, non-phosphorylated (ABL1, Homo sapiens, UniProt P00519, F317L) | 90% |
| Cyclin-dependent kinase 11A (CDK11A, Homo sapiens, UniProt Q9UQ88) | 100% |
| Epidermal growth factor receptor (EGFR, Homo sapiens, UniProt P00533, del746-750) | 82% |
| Mitogen-activated protein kinase kinase kinase 15 (MAP3K15, Homo sapiens, UniProt Q6ZN16) | 93% |
| Ribosomal protein S6 kinase alpha-4, N-terminal kinase domain (RPS6KA4, Homo sapiens, UniProt O75676) | 100% |

Study 2 — observed: enzyme activity; mode: inhibitor; concentration: 0.5 µM; baseline: control
Target: Serine/threonine-protein kinase 3 (STK3, Homo sapiens, UniProt Q13188)
Target sequence (Q13188 1-491): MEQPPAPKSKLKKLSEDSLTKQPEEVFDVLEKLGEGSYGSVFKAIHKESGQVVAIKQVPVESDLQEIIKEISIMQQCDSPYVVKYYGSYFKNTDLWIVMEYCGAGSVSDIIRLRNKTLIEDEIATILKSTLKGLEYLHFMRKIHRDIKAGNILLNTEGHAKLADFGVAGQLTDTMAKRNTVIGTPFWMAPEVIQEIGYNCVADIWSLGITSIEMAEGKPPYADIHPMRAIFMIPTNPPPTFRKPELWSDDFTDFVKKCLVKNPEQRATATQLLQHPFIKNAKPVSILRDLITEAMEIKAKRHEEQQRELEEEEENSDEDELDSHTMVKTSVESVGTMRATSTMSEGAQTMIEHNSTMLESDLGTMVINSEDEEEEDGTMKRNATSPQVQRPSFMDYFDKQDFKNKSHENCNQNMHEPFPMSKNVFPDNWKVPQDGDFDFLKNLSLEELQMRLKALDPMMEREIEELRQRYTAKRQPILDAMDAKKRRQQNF
| Compound | remaining activity [%] |
| --- | --- |
| O=C1NC(=O)/C(=C/c2ccc3nccnc3c2)S1 | 104 |
| Cc1nc(Nc2ncc(C(=O)Nc3c(C)cccc3Cl)s2)cc(N2CCN(CCO)CC2)n1 | 90.6 |
| CC(C)[C@H](CO)Nc1nc(Nc2cccc(Cl)c2)c2ncn(C(C)C)c2n1 | 90.8 |
| Nc1[nH]nc2nnc(-c3c(-c4ccccc4)nn4ccccc34)cc12 | 102 |
| COc1ccc(-c2cnc3c(-c4ccsc4)cnn3c2)cc1 | 97.7 |
| CCC(=O)Nc1ccc2ncnc(Nc3cccc(Br)c3)c2c1 | 88 |
| CC(C)c1nn(-c2c(Cl)cccc2Cl)c2nc(Cc3ccc(OCCO)cc3)[nH]c(=O)c12 | 93.5 |
| C[S+]([O-])c1ccc(-c2nc(-c3ccncc3)c(-c3ccc(F)cc3)[nH]2)cc1 (centres unmarked) | 102 |
| COc1cc2ncc(-c3ccccc3)nc2cc1OC | 95.7 |
| COc1ccc(Cl)cc1NC(=O)Nc1cc(C)nc2ccccc12 | 98.9 |

Study 3 — observed: enzyme activity; mode: inhibitor; concentration: 10 µM
Target: Calcium/calmodulin-dependent protein kinase type II subunit alpha (CAMK2A, Homo sapiens, UniProt Q9UQM7)
Sequence of UniProt Q9UQM7 (whole entry, looked up): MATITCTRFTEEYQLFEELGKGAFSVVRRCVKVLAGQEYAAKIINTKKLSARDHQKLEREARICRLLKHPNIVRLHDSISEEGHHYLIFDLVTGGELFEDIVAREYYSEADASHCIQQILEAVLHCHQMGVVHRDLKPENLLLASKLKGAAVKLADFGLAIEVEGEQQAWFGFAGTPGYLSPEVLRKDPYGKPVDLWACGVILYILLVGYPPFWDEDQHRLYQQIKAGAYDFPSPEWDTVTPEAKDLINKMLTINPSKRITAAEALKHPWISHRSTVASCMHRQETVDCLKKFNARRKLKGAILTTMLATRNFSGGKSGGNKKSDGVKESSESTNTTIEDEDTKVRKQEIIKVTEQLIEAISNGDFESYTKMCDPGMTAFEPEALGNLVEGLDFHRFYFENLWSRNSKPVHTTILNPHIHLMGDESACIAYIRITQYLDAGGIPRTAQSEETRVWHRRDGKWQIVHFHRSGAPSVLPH
| Compound | inhibition [%] |
| --- | --- |
| Cc1cc(O)cc(O)c1 | -13 |
| C=C(C)[C@H](CC=C(C)C)Cc1c(O)cc(OC)c2c1O[C@H](c1ccc(O)cc1OC)CC2=O | 5 |
| CC(=O)O[C@]1(C(C)=O)CC[C@H]2[C@@H]3C=C(C)C4=CC(=O)CC[C@]4(C)[C@H]3CC[C@@]21C | -3 |
| COCc1c(C(C)C)nc(C(C)C)c(/C=C/[C@@H](O)C[C@@H](O)CC(=O)O)c1-c1ccc(F)cc1 | -3 |
| CC(C)C(O)C(=O)O (centres unmarked) | -16 |
| CC(C)=C[C@H]1C[C@](C)(O)[C@@H]2[C@H]3CC[C@@H]4[C@@]5(C)CC[C@H](O[C@@H]6O[C@H](CO)[C@@H](O)[C@H](O[C@@H]7O[C@H](CO)[C@@H](O)[C@H](O)[C@H]7O)[C@H]6O[C@@H]6O[C@@H](CO)[C@H](O)[C@H]6O)C(C)(C)[C@@H]5CC[C@@]4(C)[C@@]34CO[C@@]2(C4)O1 | 12 |
| O=Cc1ccccc1C(=O)O | 2 |
| CC1(C)CC[C@]2(C(=O)O)CC[C@]3(C)C(=CC[C@@H]4[C@@]5(C)CC[C@H](O[C@@H]6O[C@H](C(=O)O)[C@@H](O)[C@H](O[C@@H]7OC[C@@H](O)[C@H](O)[C@H]7O[C@@H]7O[C@H](CO)[C@@H](O)[C@H](O)[C@H]7O)[C@H]6O)C(C)(C)[C@@H]5CC[C@]43C)[C@@H]2C1 | 20 |
| NCCC[C@H](NC(=O)[C@@H]1CCCN1C(=O)[C@@H]1CSSC[C@H](N)C(=O)N[C@@H](Cc2ccc(O)cc2)C(=O)N[C@@H](Cc2ccccc2)C(=O)N[C@@H](CCC(N)=O)C(=O)N[C@@H](CC(N)=O)C(=O)N1)C(=O)NCC(N)=O | -6 |
| C=C1CCC[C@]2(C)CC[C@@H](C(C)(C)O)C[C@@H]12 | 2 |
| COc1cc(O)c2c(c1)O[C@H](c1ccc(O)cc1)CC2=O | 13 |
| Cc1cccc(N2CC(CO)OC2=O)c1 (centres unmarked) | 14 |
| O=C(OC1C[C@H]2CC[C@@H](C1)[N+]21CCCC1)C(O)(c1ccccc1)c1ccccc1 (some centres unmarked) | 2 |
| CC(=O)O[C@@H]1[C@@H](O)[C@H](O[C@H]2CC[C@]34C[C@]35CC[C@]3(C)[C@@H]([C@@]6(C)CC[C@@H](C(C)(C)O)O6)[C@@H](O)C[C@@]3(C)[C@@H]5C[C@H](O[C@@H]3O[C@H](CO)[C@@H](O)[C@H](O)[C@H]3O)[C@H]4C2(C)C)OC[C@H]1O | -14 |
| CCCCC/C=C\C/C=C\C/C=C\C/C=C\CCCC(=O)O | -3 |
| OC[C@@H](O)C(O)[C@H](O)CO | 36 |
| CC1(C)CC[C@]2(C(=O)O)CC[C@]3(C)C(=CC[C@@H]4[C@@]5(C)C[C@@H](O)[C@H](O)C(C)(C)[C@@H]5CC[C@]43C)[C@@H]2C1 | -23 |

Study 4 — organism: Plasmodium berghei; mode: inhibitor; cells: Huh-7; strain: GFP-expressing, liver stage; concentration: 10 µM; time: 24 h; baseline: untreated control
| SMILES | infection rate |
| --- | --- |
| C#C[C@]1(OC(C)=O)CC[C@H]2[C@@H]3CCC4=CC(=O)CC[C@@H]4[C@H]3CC[C@@]21C | 79.8% |
| CCn1cc(C(=O)O)c(=O)c2cc3c(cc21)OCO3 | 76.9% |
| Cc1nnc(NS(=O)(=O)c2ccc(N)cc2)s1 | 93.7% |
| CCCNC(C)C(=O)Nc1ccccc1C (centres unmarked) | 103% |
| C#CCN(C)Cc1ccccc1 | 98.5% |
| COC(=O)[C@H]1[C@H]2C[C@@H]3c4[nH]c5cc(OC)ccc5c4CCN3C[C@H]2C[C@@H](OC(=O)c2cc(OC)c(OC)c(OC)c2)[C@@H]1OC | 19.6% |
| Cc1cn([C@H]2C[C@H](N=[N+]=[N-])[C@@H](CO)O2)c(=O)[nH]c1=O | 90.5% |
| CC[C@H]1OC(=O)[C@H](C)[C@@H](O[C@H]2C[C@@](C)(OC)[C@@H](O)[C@H](C)O2)[C@H](C)[C@@H](O[C@@H]2O[C@H](C)C[C@H](N(C)C)[C@H]2O)[C@](C)(O)C[C@@H](C)/C(=N\OCOCCOC)[C@H](C)[C@@H](O)[C@]1(C)O | 103% |
| Cc1onc(-c2ccccc2)c1-c1ccc(S(N)(=O)=O)cc1 | 92.1% |
| O=C1CCC(N2C(=O)c3ccccc3C2=O)C(=O)N1 (centres unmarked) | 90.5% |
| CCCN1C[C@H](CSC)C[C@@H]2c3cccc4[nH]cc(c34)C[C@H]21 | 102% |
| Nc1ccc(S(=O)(=O)NC(=O)c2ccccc2)cc1 | 95.2% |
| CN1C(C(=O)Nc2ccccn2)=C(O)c2ccccc2S1(=O)=O | 111% |
| CC(=O)OCC(=O)[C@@]1(O)[C@H](OC(C)=O)C[C@H]2[C@@H]3CCC4=CC(=O)C=C[C@]4(C)[C@@]3(F)[C@@H](O)C[C@@]21C | 106% |

For quick reference, copied from above (study 3):
| Compound | inhibition [%] |
| --- | --- |
| COc1cc(O)c2c(c1)O[C@H](c1ccc(O)cc1)CC2=O | 13 |
| Cc1cccc(N2CC(CO)OC2=O)c1 (centres unmarked) | 14 |
| O=C(OC1C[C@H]2CC[C@@H](C1)[N+]21CCCC1)C(O)(c1ccccc1)c1ccccc1 (some centres unmarked) | 2 |
